Results pooled from the literature.
Lines come from different studies, so protocols differ. “And” joins repeats or separate records; there may be more than shown. Numbers after ± are the reported error.
UniProt P21333, sequence (whole entry, looked up): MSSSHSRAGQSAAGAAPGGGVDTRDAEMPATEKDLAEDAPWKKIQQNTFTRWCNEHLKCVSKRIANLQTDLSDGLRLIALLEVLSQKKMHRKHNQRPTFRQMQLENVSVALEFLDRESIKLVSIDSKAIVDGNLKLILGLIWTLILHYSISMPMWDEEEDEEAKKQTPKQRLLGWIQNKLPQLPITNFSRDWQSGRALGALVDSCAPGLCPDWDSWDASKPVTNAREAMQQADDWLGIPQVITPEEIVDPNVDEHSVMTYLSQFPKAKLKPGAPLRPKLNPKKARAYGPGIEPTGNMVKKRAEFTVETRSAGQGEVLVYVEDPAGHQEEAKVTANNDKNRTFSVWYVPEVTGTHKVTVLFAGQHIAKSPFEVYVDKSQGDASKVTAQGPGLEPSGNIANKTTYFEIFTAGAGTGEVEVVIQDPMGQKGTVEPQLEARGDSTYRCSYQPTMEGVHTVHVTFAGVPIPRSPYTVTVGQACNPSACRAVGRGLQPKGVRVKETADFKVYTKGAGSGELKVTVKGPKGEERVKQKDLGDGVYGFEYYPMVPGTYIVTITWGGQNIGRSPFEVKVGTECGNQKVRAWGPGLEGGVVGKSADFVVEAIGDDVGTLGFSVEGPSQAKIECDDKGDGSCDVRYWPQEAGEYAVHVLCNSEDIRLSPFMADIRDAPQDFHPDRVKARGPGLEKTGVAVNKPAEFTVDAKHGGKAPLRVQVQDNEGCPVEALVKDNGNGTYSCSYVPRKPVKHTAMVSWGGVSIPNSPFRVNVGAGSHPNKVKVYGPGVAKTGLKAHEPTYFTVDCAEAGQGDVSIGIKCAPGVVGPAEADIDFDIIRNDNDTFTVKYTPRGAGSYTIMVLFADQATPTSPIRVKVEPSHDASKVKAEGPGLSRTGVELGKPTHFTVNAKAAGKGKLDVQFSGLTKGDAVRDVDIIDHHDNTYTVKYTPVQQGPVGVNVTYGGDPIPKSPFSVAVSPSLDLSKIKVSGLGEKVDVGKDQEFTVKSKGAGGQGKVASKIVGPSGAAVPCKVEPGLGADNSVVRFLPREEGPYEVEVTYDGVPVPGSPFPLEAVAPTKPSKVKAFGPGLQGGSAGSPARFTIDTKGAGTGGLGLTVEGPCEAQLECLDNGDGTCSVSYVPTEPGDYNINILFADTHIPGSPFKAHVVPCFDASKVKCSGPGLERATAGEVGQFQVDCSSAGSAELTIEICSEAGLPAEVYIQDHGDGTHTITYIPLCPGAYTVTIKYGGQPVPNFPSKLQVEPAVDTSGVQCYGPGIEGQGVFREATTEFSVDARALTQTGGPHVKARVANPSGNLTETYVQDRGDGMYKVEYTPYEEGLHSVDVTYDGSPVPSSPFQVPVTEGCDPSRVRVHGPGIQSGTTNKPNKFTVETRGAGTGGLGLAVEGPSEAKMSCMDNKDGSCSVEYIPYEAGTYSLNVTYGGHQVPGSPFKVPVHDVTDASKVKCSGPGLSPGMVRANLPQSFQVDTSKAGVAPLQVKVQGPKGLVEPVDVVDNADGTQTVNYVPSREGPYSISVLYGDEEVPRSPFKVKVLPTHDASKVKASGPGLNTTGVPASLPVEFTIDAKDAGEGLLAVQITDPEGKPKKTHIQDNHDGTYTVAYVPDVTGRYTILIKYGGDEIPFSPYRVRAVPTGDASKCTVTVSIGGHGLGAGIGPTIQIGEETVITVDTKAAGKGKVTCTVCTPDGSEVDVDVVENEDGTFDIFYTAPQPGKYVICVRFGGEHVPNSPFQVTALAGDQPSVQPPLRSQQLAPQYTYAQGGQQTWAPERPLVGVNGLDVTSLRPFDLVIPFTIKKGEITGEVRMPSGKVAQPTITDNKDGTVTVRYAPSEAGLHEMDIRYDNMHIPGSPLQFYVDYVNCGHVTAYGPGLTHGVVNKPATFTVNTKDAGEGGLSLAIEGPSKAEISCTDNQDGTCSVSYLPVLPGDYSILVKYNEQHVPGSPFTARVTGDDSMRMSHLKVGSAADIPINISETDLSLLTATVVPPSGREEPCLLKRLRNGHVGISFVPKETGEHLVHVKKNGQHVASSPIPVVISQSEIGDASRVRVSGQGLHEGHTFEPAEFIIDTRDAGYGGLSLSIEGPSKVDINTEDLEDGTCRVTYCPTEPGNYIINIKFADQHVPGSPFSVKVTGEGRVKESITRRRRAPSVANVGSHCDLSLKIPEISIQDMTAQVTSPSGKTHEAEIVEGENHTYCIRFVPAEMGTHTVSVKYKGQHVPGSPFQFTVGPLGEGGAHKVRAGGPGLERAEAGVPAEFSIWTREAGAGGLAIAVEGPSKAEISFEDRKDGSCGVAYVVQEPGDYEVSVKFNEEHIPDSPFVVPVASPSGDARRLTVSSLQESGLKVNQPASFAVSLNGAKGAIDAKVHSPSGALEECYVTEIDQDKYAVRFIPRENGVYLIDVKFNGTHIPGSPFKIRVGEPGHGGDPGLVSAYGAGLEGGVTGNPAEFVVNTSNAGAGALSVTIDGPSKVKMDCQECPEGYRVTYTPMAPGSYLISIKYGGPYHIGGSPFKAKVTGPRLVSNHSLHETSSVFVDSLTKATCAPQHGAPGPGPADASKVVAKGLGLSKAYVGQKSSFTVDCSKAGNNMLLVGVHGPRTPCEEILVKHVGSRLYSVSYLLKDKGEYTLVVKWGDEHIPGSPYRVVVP
UniProt Q15102, sequence (whole entry, looked up): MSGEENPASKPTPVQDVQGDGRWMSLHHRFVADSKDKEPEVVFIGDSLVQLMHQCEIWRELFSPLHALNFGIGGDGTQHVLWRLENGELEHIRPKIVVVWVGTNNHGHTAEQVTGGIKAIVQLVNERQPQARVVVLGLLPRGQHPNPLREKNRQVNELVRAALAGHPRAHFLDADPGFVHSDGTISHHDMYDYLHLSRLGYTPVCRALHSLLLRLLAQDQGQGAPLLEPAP

C[C@@H](NC(=O)N1C(=O)[C@H](Cc2ccnc(N)c2)[C@H]1C(=O)O)C1CCCCC1 — result for “drug-related adverse events”: 10% (healthy Chinese adult volunteers; continuous intravenous infusion, dose not given, 5.0 days, CTCAE 5.0, all doses).
Under “subjects with infections and infestations”, O=C(Nc1ccccc1)C1CCN(C(=O)Oc2cccnc2)CC1 is recorded as 7.1% (adverse event reporting; healthy women; oral, 20 mg, 7 days).
O=C(c1ccc(Cl)cc1)N1CCN2C(=O)N(OC(=O)N3CCOc4ccccc43)C(=O)C2C1 (centres unmarked) — result for “median protein ratio”: 0.8 (Platelet-activating factor acetylhydrolase IB subunit alpha1 (Homo sapiens, UniProt Q15102); MS-based ABPP; SW-620 conditioned medium; 10 µM, 1 h, 37 °C; relative to: compound over DMSO, lower = more inhibition).
Under “treatment-related adverse events”, CCCCCCCCCCCCCCCC(=O)N[C@@H](CCC(=O)NCCCC[C@H](NC(=O)[C@H](CC(=O)O)NC(=O)[C@H](CO)NC(=O)[C@@H](NC(=O)[C@H](Cc1ccccc1)NC(=O)[C@@H](NC(=O)CNC(=O)[C@H](CCC(N)=O)NC(=O)[C@H](CO)NC(=O)[C@@H](N)Cc1c[nH]cn1)[C@@H](C)O)[C@@H](C)O)C(=O)N[C@@H](CO)C(=O)N[C@@H](CCC(=O)O)C(=O)N[C@@H](Cc1ccc(O)cc1)C(=O)N[C@@H](CC(C)C)C(=O)N[C@@H](CC(=O)O)C(=O)N[C@@H](CO)C(=O)N[C@@H](CCC(=O)O)C(=O)N[C@@H](CCCNC(=N)N)C(=O)N[C@@H](C)C(=O)N[C@@H](CCCNC(=N)N)C(=O)N[C@@H](CC(=O)O)C(=O)N[C@@H](Cc1ccccc1)C(=O)N[C@H](C(=O)N[C@@H](C)C(=O)N[C@@H](Cc1c[nH]c2ccccc12)C(=O)N[C@@H](CC(C)C)C(=O)N[C@@H](CCC(=O)O)C(=O)N[C@@H](C)C(=O)NCC(=O)NCC(=O)O)C(C)C)C(=O)O is recorded as 9.1% (item: Headache; humans CrCl 30 to 45 mL/min; subcutaneous, 100 µg single dose).
The remaining peptide of CC(C)[C@@H]1NC(=O)CNC(=O)[C@H](CC(N)=O)NC(=O)[C@H](CCCNC(=N)N)NC(=O)[C@H](Cc2ccc(O)cc2)NC(=O)[C@H](C(C)C)NC(=O)[C@@H](NC(=O)[C@@H](NC(=O)[C@H](CC(N)=O)NC(=O)[C@H](Cc2c[nH]c3ccccc23)NC(=O)[C@H](C)NC(=O)[C@H](Cc2ccccc2)NC(=O)CN)C(C)C)CSSC[C@@H](C(=O)N[C@@H](Cc2cnc[nH]2)C(=O)N[C@@H](CCCNC(=N)N)C(=O)N[C@@H](CCCNC(=N)N)C(=O)N[C@@H](C)C(=O)N[C@@H](CC(N)=O)C(N)=O)NC(=O)[C@H](C(C)C)NC(=O)[C@H](CCCNC(=N)N)NC1=O is reported as 22.2% and 16.4% and 14.6% (HPLC; mouse liver homogenate; 2560 µM, 2.00 h, 50 mg/mL tissue).
For NCCCS(=O)(=O)O, the Cmin was 148 ng/mL (human, plasma; oral, 265 mg twice daily, pre-dose, steady state week 65).
Under “red cell distribution width (SD)”, COc1ccc2nc3cc(Cl)ccc3c(Nc3cc(CN4CCCC4)c(O)c(CN4CCCC4)c3)c2n1 is recorded as 24.9 fL (mouse, blood; oral, 57 mg/kg).
For Oc1ccc(CSCc2ccc(O)cc2)cc1, “body weight gain” read 4.15 ± 2.89 g (ICR mice male; oral, 1500 mg/kg, day 8, acute toxicity; relative to: day 1).
CCC(C)c1cc(C(C)(C)C)cc(-n2nc3ccccc3n2)c1O (centres unmarked) has a mass recovery of 70.2% (EpiSkin reconstructed epidermis; 36 h).
Under “patients with paronychia”, C=CC(=O)Nc1cc(Nc2nccc(Nc3cc(Cl)c(F)cc3C(C)(C)O)n2)c(OC)cc1N1CC[C@@H](N(C)C)C1 is recorded as 29.4% (human patients; oral, 300 mg, treatment-emergent adverse events).
With Clc1cc2c(cc1Cl)Oc1cc(Cl)c(Cl)cc1O2 the mRNA level was 1.7 fold (RNA-Seq, item: Cyp2j4; female Sprague-Dawley rat, liver; dose not given; relative to: vehicle).
For C[C@H]1CN(c2n[nH]c3nc(N[C@H]4CC[C@H](NS(=O)(=O)CCC(F)(F)F)CC4)ncc23)CCO1, the relative abundance was 1.29 (Filamin-A (Homo sapiens, UniProt P21333); competitor, Kinobeads competition; human cell extract; 0.16 µM; relative to: vehicle).
O=C(Nc1ccccc1)C1CCN(C(=O)Oc2cccnc2)CC1: “adverse event incidence” 4% (item: Asthenia; healthy female human; concentration not given, all doses pooled).
With CCc1ccc(CC/C=C/c2ccc3c(c2)C(=O)CC3)cc1 the Albumin was 33.1 g/L (Sprague-Dawley rat, male; oral, 120 mg/kg/day, 14 days).
For CC1(C)C(/C=C(\Cl)C(F)(F)F)C1C(=O)OC(C#N)c1cccc(Oc2ccccc2)c1 (centres unmarked), “enzyme contribution to clearance” read 0.36% (item: CYP2B6; human, age 5 years).
CN1CC[C@@H](c2c(O)cc(O)c3c(=O)cc(-c4ccc(C(F)(F)F)cc4Cl)oc23)[C@@H]1CO: “patients with adverse event” 50% (item: Sepsis; relapsed AML; oral, 150 mg, grade 3-4, intermittent dosing).
[O-][S+]1CCc2nc(N3CCC(c4ncc(Cl)cn4)CC3)nc(NC3(CO)CCC3)c21 (centres unmarked) — result for “erythrocyte sedimentation rate”: 29.1 mm/h (item: mean; idiopathic pulmonary fibrosis patients, blood; 18 mg twice daily, at last treatment).
Cn1cncc1-c1c(F)cncc1NC(=O)c1c(N)nn2cc(F)cnc12 — result for “grade ≥3 lymphocyte decrease incidence”: 50% (human patients; oral, 270 mg once daily).
For CO[C@H]1C[C@@H]2CC[C@@H](C)[C@@](O)(O2)C(=O)C(=O)N2CCCC[C@H]2C(=O)O[C@H]([C@H](C)C[C@@H]2CC[C@@H](OC(=O)NCCOCCOCCOCCOCCOCCOCCOCCOCCC(=O)N3CCc4cc(Cn5nc(-c6ccc7oc(N)nc7c6)c6c(N)ncnc65)ccc4C3)[C@H](OC)C2)C[C@@H](O)[C@H](C)/C=C(\C)[C@@H](O)[C@@H](OC)C(=O)[C@H](C)C[C@H](C)/C=C/C=C/C=C/1C, the TRAE incidence was 18.8% (phase 1 dose escalation, item: headache; advanced solid tumour patients; intravenous, 8 mg weekly, any grade).
With C[C@@H](O)[C@@H](CO)NC(=O)[C@@H](CCCNC(=N)N)NC(=O)[C@@H]1CCCN1C(=O)[C@@H]1CSSC[C@H](NC(=O)[C@H](Cc2ccccc2)NC(=O)CN2CCN(CC(=O)O)CCN(CC(=O)O)CCN(CC(=O)O)CC2)C(=O)N[C@@H](Cc2ccc(O)cc2)C(=O)N[C@@H](Cc2ccccc2)C(=O)N[C@@H](CCC(N)=O)C(=O)N[C@@H](CC(N)=O)C(=O)N1 [gallium-68 labelled] the tissue uptake was 0.3 %ID/g (healthy Wistar rat, spleen; intravenous, 8 MBq, 30 min, individual animals).
For CC[C@H](C)[C@@H]1NC(=O)[C@@H]2CSSC[C@H](NC(=O)[C@H](CCCNC(=N)N)NC(=O)[C@@H]3CSSC[C@H](NC1=O)C(=O)N[C@@H]([C@@H](C)O)C(=O)N[C@@H](CCCNC(=N)N)C(=O)NCC(=O)N[C@@H](Cc1ccccc1)C(=O)N3)C(=O)N[C@@H](CC(C)C)C(=O)N[C@H]1CSSC[C@H](NC(=O)[C@H](C(C)C)NC(=O)CNC(=O)[C@H](CCCNC(=N)N)NC(=O)[C@H](CCCNC(=N)N)NC1=O)C(=O)N[C@@H](CCCNC(=N)N)C(=O)N2, “lung thrombosis score” read 1 to 2 (cynomolgus monkey, female, lung; 5 mg/kg, histopathology, multifocal; direction not given).
CC[C@H](C)CCCCC(=O)N[C@@H](CCN)C(=O)N[C@H](C(=O)N[C@@H](CCN)C(=O)N[C@H]1CCNC(=O)[C@H]([C@@H](C)O)NC(=O)[C@H](CCN)NC(=O)[C@H](CCN)NC(=O)[C@H](CC(C)C)NC(=O)[C@@H](CC(C)C)NC(=O)[C@H](CCN)NC1=O)[C@@H](C)O — result for “AUC extrapolated percentage”: 0.0486 ± 0.0019% (rat; subcutaneous, 10 mg/kg).
O=[N+]([O-])c1ccc2c(c1)S(=O)(=O)C=C2 gave a CD4+ cells of 17.9% (flow cytometry; male C57BL/6 mice, spleen; i.p., 20 mg/kg, 8 days; relative to: CD45+ cells).
For C[C@]1(CO)Cc2ncn(-c3ccc(C#N)c(Cl)c3)c2C(=O)O1, “drug-related Acne incidence” read 0% (Japanese subjects; 20 mg single dose).
O=C(O)CCC(CP(=O)(O)O)C(=O)O (centres unmarked) gave an AUC(0-t) of 138 ± 39.7 nmol·h/g (NSG mice, C4-2 xenograft, kidney; intravenous, 3 mg/kg, 0.25 to 6 h).
The AUC extrapolated of CCc1cc(C(=O)NC)c2nccc(N3CCc4c(cc(Cn5ccnc5)cc4-c4cn(C)nc4C(F)(F)F)C3=O)c2c1 is reported as 0% (Sprague Dawley rats, male, bile duct-cannulated, plasma; oral, 50 mg/kg).
With Clc1ccc(Cl)c(-c2cc(Cl)ccc2Cl)c1 the concentration was 4 ng/g (Sprague Dawley rat female, serum; intraperitoneal, 10 mg/kg, 3 weeks).
COc1cc2c(Oc3ccc4[nH]c(C)cc4c3F)ccnc2cc1OCC1(N)CC1 — result for “grade 3 Epistaxis”: 0% (paediatric recurrent refractory sarcoma; 12 mg).
Cc1sc2c(c1C)C(c1ccc(Cl)cc1)=N[C@@H](CC(=O)Nc1ccc(O)cc1)c1nnc(C)n1-2 gave an AUC(0-last) of 0.0479 µM·h (Crl:CD1(ICR) mice, female, brain; intravenous, 5 µmol/kg).
For O=S(=O)(Nc1ccccc1)c1ccc(NC(=S)Nc2ccccc2)cc1, “relative organ weight” read 1.12% (female mice, lung; oral, 5 mg/kg daily 14 days; relative to: body weight).
CCS(=O)(=O)Nc1ccc(Oc2ccc(F)cc2F)c(-c2cn(C)c(=O)c3[nH]ccc23)c1 — result for “treatment-emergent adverse events”: 5% (serious respiratory failure; human, relapsed/refractory AML; oral, dose not given).
COc1ccc([C@@H](O)c2cc(-c3ncnc4cc(N5CCOCC5)ccc34)c(F)cc2Cl)nn1 gave a hypomagnesaemia incidence of 4% (patients, advanced solid tumours; oral, 300 mg twice daily, treatment-emergent, added: avelumab; relative to: patients).
CC[C@H](C)[C@H](NC(=O)[C@H](Cc1ccccc1)NC(=O)[C@H](CCC(=O)O)NC(=O)[C@H](CCCNC(=N)N)NC(=O)[C@H](C)NC(=O)[C@H](C)NC(=O)[C@H](CCC(N)=O)NC(=O)[C@H](CCC(=O)O)NC(=O)[C@H](CCC(=O)O)NC(=O)[C@H](CC(C)C)NC(=O)[C@H](Cc1ccc(O)cc1)NC(=O)[C@H](CO)NC(=O)[C@H](CO)NC(=O)[C@@H](NC(=O)[C@H](CC(=O)O)NC(=O)[C@H](CO)NC(=O)[C@@H](NC(=O)[C@H](Cc1ccccc1)NC(=O)[C@@H](NC(=O)CNC(=O)[C@H](CCC(=O)O)NC(=O)[C@H](C)NC(=O)CCc1c[nH]cn1)[C@@H](C)O)[C@@H](C)O)C(C)C)C(=O)N[C@@H](C)C(=O)N[C@@H](Cc1c[nH]c2ccccc12)C(=O)N[C@@H](CC(C)C)C(=O)N[C@H](C(=O)N[C@@H](CCCNC(=N)N)C(=O)NCC(=O)N[C@@H](CCCNC(=N)N)C(=O)N[C@@H](CCCCNC(=O)COCCOCCNC(=O)COCCOCCNC(=O)CC[C@H](NC(=O)CCCCCCCCCCCCCCCCC(=O)O)C(=O)O)C(=O)NCC(=O)NCC(=O)N[C@@H](CO)C(=O)N[C@@H](CCCCNc1c(NCCCCCN(O)C(=O)CCC(=O)NCCCCCN(O)C(=O)CCC(=O)NCCCCCN(O)C(C)=O)c(=O)c1=O)C(=O)O)C(C)C [zirconium-89 labelled] has a tissue uptake of 1.24 %ID/g (rat, bone marrow; iv, 3 nmol/kg, 168 h, ex vivo).
Under “treatment-related adverse events”, O=C(c1ccc(F)c(F)c1Nc1ccc(I)cc1F)N1CC(O)([C@@H]2CCCCN2)C1 is recorded as 92% (human patients; oral, 1 mg/kg, dose expansion).
CC(C)(O)c1cc(Nc2cc(Oc3cn(C4CC4)nc3C3CCOCC3)ccn2)ccn1: “treatment-emergent adverse events” 10% (Diarrhea; advanced cancer patients, grade 4 glioma expansion; oral, 50 mg twice daily, all causality any grade).
For Cc1cccc(Cn2nc(C3CC3)c3c(NC(=O)c4cnc5cc(OCCN6CCN(C)CC6)ccn45)cccc32)n1, “all-cause adverse events” read 94.7% (CTCAE v4.03; patients with advanced solid tumours; oral, all dose levels, added: pembrolizumab 2 mg/kg IV every 3 weeks).
OC[C@H]1OC(O)[C@H]([18F])[C@@H](O)[C@@H]1O (some centres unmarked) has an SUV of 5.3 (PET; Sprague-Dawley rat, olfactory bulb; intravenous, 2 h).
With CN1CCN(S(=O)(=O)c2cc([N+](=O)[O-])ccc2N(CCOS(C)(=O)=O)CCOS(C)(=O)=O)CC1 the AUC(0-t) was 2.17 µM·h (naive female NSG mice, plasma; intraperitoneal, 10 mg/kg).
Under “heart rate change”, C[C@H]1COCCN1c1nc(NCc2cccnc2C(F)(F)F)c2cccnc2n1 is recorded as 9.3% (conscious rat; intravenous, 30 mg/kg; relative to: control).
Under “respiratory failure adverse events”, Nc1nc2cc(-c3ccc4ncc(C(=O)N5CCOCC5)n4c3)ccc2o1 is recorded as 4% (human, advanced solid tumours; 100–300 mg once daily, any cause, grade ≥3).
The drug concentration of COc1ncccc1-c1cnn2ccc(N3CCN(C(=O)OC(C)C)CC3)nc12 is reported as 16 µM (rat, STZ model, plasma; oral, 30 mg/kg, 240 min).

Repeated from above:
The AUC extrapolated of CCc1cc(C(=O)NC)c2nccc(N3CCc4c(cc(Cn5ccnc5)cc4-c4cn(C)nc4C(F)(F)F)C3=O)c2c1 is reported as 0% (Sprague Dawley rats, male, bile duct-cannulated, plasma; oral, 50 mg/kg).
For C[C@]1(CO)Cc2ncn(-c3ccc(C#N)c(Cl)c3)c2C(=O)O1, “drug-related Acne incidence” read 0% (Japanese subjects; 20 mg single dose).
C[C@@H](NC(=O)N1C(=O)[C@H](Cc2ccnc(N)c2)[C@H]1C(=O)O)C1CCCCC1 — result for “drug-related adverse events”: 10% (healthy Chinese adult volunteers; continuous intravenous infusion, dose not given, 5.0 days, CTCAE 5.0, all doses).
Under “red cell distribution width (SD)”, COc1ccc2nc3cc(Cl)ccc3c(Nc3cc(CN4CCCC4)c(O)c(CN4CCCC4)c3)c2n1 is recorded as 24.9 fL (mouse, blood; oral, 57 mg/kg).
